Measured values from different studies.
Parts stem from different laboratories: compare values within a part only. Substitutions count along the parent as printed.

Block 1
Target: Sal-like protein 4, full length isoform B (SALL4, Homo sapiens, UniProt Q9UJQ4-2, residues 1-616)
Method: universal PBM
Molecule type: double-stranded DNA, one strand shown
Medium: in vitro
Tested at: not given
Notes: 8-mer, flanks averaged, mean of replicates
Reading: higher = stronger binding
Residues (chain): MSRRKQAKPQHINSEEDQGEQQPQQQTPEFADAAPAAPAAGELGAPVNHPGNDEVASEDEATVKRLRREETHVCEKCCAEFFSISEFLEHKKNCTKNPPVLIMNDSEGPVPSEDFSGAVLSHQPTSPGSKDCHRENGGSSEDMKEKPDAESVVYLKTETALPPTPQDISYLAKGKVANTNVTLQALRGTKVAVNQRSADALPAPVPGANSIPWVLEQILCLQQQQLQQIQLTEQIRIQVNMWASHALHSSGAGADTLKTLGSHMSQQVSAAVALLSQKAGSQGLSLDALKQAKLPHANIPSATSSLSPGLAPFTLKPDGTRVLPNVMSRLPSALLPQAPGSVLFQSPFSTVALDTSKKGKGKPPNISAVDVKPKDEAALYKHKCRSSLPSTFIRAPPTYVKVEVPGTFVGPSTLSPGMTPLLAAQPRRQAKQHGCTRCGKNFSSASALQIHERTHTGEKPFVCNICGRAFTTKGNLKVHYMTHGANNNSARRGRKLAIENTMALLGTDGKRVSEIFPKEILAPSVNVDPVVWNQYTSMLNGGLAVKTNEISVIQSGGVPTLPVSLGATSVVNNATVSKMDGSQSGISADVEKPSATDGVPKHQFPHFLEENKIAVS
| Sequence | E-score |
| --- | --- |
| ATGGGCTC | -0.126 |
| AAGACGTA | 0.146 |
| CTAACAAG | 0.155 |
| AGACATCA | 0.0554 |
| GTCGTCAA | -0.0369 |
| GCTAGACA | 0.0886 |
| ATCAACAG | 0.0326 |
| AGCCACTG | -0.296 |
| GATCTGCA | -0.0909 |
| GCTTGGGA | -0.131 |
| GTTATGTA | 0.212 |
| AGCACATG | -0.057 |

Block 2
Target: Interferon regulatory factor 7, full length, phosphomimetic (IRF7, Homo sapiens, UniProt Q92985, residues 1-503, S101K/S471D/S472D/S475D/S476D/S477D/S483D/S484D/S487D)
Method: protein-binding microarray
Molecule type: double-stranded DNA, one strand shown
Medium: in vitro
Tested at: 250 nM
Notes: 60-bp whole probe
Together with: salmon DNA 0.4 mg/ml
Relative to: random background probes
Reading: higher = stronger binding
All sequences stand within: GCCTAGCAC … GTCTTGATTCGCTTGACGCTGCTG
Target sequence (chain): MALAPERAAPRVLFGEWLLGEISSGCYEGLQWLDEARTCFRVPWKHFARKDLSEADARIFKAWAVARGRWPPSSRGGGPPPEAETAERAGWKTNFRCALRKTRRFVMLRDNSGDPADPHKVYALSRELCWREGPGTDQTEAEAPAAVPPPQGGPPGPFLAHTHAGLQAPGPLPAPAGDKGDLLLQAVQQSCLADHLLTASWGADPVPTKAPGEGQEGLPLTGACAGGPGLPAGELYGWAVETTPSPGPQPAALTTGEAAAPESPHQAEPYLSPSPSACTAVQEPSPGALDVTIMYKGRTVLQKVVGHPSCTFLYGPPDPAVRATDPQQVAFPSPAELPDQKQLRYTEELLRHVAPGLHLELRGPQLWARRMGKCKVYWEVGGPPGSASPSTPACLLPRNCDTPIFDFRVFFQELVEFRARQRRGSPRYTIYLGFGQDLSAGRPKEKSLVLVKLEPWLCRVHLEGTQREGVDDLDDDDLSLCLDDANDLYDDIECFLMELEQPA
| Sequence | log fluorescence [z-score] |
| --- | --- |
| TCAGGTTTTCTAATGTTACTGTGCTAG | 0.685 |
| GCCGATATCAGACTGGAGACGTGCTAG | -0.154 |
| TTAGTACTGCTTTTCCTTTAGTGCTAG | 1.61 |
| TTAGGTATCCACTATCGGTTAGTGCTA | -0.267 |
| TTAGGTCTCGCTCTCGGTTAGTGCTAG | 1.14 |
| GACGGACTGGCGACTGGGGACGTGCTA | -0.751 |
| TCAAATCCCCTTCTACTACTGTGCTAG | 0.566 |

Block 3
Target: CCNA2, cyclin fold, Cln2 fusion (human)
Method: yeast growth competition, sequencing
Medium: yeast
Notes: strong parent motif
Relative to: not given
Reading: higher = stronger binding
Starting sequence: ORC1 docking peptide (human); PRARKRLELGNLG
| Change | normalised enrichment score |
| --- | --- |
| PRARKRLELGNLH [G13H] | 5.59 |
| PRARKRLEAGNLG [L9A] | 1.35 |
| PNARKRLELGNLG [R2N] | 4.76 |
| PRARRRLELGNLG [K5R] | 5.95 |
| PRARWRLELGNLG [K5W] | 2.16 |
| PRARKRLELGNLR [G13R] | 4.49 |

Further values, each from its own experiment
| Substance | target | assay | test system | setting | scale | measurement | result |
| --- | --- | --- | --- | --- | --- | --- | --- |
| PhoQ, residues 284 288 289 292 302 303 SLANIV | PhoP, residues 12 14 15 18 19 MHTVL (Escherichia coli, UniProt P23836) | Sort-seq, refers to: YFP reporter | E. coli | PhoQ-PhoP variant library, together with: 10 µM Mg2+ | relative to: high Mg2+ state, higher = stronger signaling | fold induction | 8.28 |

For quick reference, copied from above (block 1):
| Sequence | E-score |
| --- | --- |
| CTAACAAG | 0.155 |
| ATGGGCTC | -0.126 |
| AAGACGTA | 0.146 |
| AGCCACTG | -0.296 |
